Published values pooled from the literature.
Numbered parts are unrelated; each lists some results of a single study. Substitutions count along the parent as printed.

Set 1
Target: RNA binding protein fox-1 homolog 2, RRM domain, GST-SBP tag (RBFOX2, Homo sapiens, UniProt O43251-10, residues 100-194)
Technique: RNA Bind-n-Seq
Form: RNA
Matrix: in vitro
Concentration: 365 nM
Setting: natural RNA segment, single round, ends assumed
Baseline: no-protein control
Reading: higher = stronger binding
Residues (chain): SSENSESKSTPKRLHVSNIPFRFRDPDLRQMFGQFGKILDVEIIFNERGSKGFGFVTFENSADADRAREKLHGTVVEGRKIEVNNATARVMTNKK
Oligonucleotide | RBNS enrichment (R)
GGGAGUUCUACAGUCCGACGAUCAACCUAAUAAGUAACUGUGAGAUGUACAGAAAGGUGUUCUUACAUGAAGAAGGGUGUGAAGGCUGAACAAUCAUGGAUUUUUCUGAUCAAUUGUGCUUUAGGAAAUUAUUUGGAAUUCUCGGGUGCCAA | 0.705
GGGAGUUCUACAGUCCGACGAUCAUAGCUGAGCAGGAGCCACAUGGAUUGAUUGUAUCCACUCACCAUUGACGAUGGCAUUGAGCGUAGCUAGCUUAUUUCCAUCACUACGUGUUUUUGAGCUUGCUCUUACGUGGAAUUCUCGGGUGCCAA | 0.503
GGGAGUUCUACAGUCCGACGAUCCCAAUUCUUACUGUUCAGGUUUGAUGUGGAAUCACAGCUGCAGUGAUAUAUAUUUUUUAUCAGUGCUUGGUUGGUUUUAAAUAAAGUGCACGCUAUUUUAUUAUCUUGUUUGGAAUUCUCGGGUGCCAA | 3.93
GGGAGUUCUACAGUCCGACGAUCCGAUCAAAAACCCACUGUGAUGUGUUGGUGGCUUUGUCUGAAGCACCAGGGAGUUUGGUGAAGCUAAAGGAGUCAUAGGAGACUUGCAGUGGCUGGAUGUUCUCACGCCUUGGAAUUCUCGGGUGCCAA | 0.805
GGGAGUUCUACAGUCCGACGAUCAUACCUGGGAAGACCUUUGCAACAUUGUUCCUUCCAUGGGCCAAGACUCAGUUAGGAGGCAUAAAUCUGCCCGGAAUAAACUAGGCCAGGAUACAGCCAUGUUUAGUUAAUGGAAUUCUCGGGUGCCAA | 0.405
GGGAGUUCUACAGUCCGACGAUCAACUCUUGAGACUGCAUUGUCUUAUAUUCUGUAAGUUCAGAAAUGUAAGUGAAAAAGCCGUGACCAACCGUAGUAAAGUAGAUGACAGCUGUUGUAUAUCAGACUUAAUUUGGAAUUCUCGGGUGCCAA | 0.337
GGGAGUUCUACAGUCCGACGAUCUGGUUUGGUUCUUGUUUCAGCCCAAUAUGUAGAGAACAUUUGAAACAGUCUGCACCUUUGAUACGGUAUUGCAUUUCCAAAGCCACCAAUCCAUUUUGUGGAUUUUAUGUUGGAAUUCUCGGGUGCCAA | 0.683

Set 2
Target: CCNB1, cyclin fold, Cln2 fusion (human)
Technique: yeast growth competition, sequencing
Matrix: yeast
Setting: weak parent motif
Baseline: not given
Reading: higher = stronger binding
Starting sequence: CDKN1A docking peptide (human); SKACRRLFGPVDS
Change | normalised enrichment score
V11E | 0.527
L7P | 0.0866
K2T | 0.338
D12C | 0.0103

Set 3
Target: Interferon regulatory factor 7, full length, phosphomimetic (IRF7, Homo sapiens, UniProt Q92985, residues 1-503, S471D/S472D/S475D/S476D/S477D/S483D/S484D/S487D)
Technique: protein-binding microarray
Form: double-stranded DNA, one strand shown
Matrix: in vitro
Concentration: 2200 nM top
Setting: 60-bp whole probe
Together with: salmon DNA 0.4 mg/ml
Baseline: random background probes
Reading: higher = stronger binding
All sequences stand within: GCCTAGCAC … GTCTTGATTCGCTTGACGCTGCTG
Construct (chain): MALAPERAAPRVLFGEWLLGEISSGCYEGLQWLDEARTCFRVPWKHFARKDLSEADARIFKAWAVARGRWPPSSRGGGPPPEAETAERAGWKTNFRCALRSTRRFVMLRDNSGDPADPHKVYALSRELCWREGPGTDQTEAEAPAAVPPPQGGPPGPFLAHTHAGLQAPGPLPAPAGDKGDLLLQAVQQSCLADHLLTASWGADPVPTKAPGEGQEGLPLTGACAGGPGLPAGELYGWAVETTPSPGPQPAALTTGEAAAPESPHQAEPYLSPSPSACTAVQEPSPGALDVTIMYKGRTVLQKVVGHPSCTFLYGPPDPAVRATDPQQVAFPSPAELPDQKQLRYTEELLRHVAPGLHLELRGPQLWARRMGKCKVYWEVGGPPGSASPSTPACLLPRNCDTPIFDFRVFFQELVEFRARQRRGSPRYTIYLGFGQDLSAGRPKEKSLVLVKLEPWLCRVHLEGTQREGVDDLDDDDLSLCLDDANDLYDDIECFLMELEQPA
Oligonucleotide | fitted relative affinity
TTAGGTCTCCTACTGCTTAAGTGCTAG | 0.41 z-score
TTAGGACGGCTTATCCTTTAGTGCTAG | -0.128 z-score
GACGGTTCCGGCTTCGGGACGTGCTAG | 0.846 z-score
GACGGTATCGTTCTCCTGACGTGCTAG | 1.15 z-score
TTAGATTCCAGATTCGATTAGTGCTAG | 2.01 z-score
TTATGACTGGGGTTTCGGTTAGTGCTA | 3.89 z-score
TTAGCTCTCGGACTGGGTTAGTGCTAG | -0.106 z-score

Mixed results
Molecule | target | test | system | conditions | how to read | measurement | result
PhoQ, residues 284 288 289 292 302 303 TTCLQL | PhoP, residues 12 14 15 18 19 STWGI (Escherichia coli, UniProt P23836) | Sort-seq, item: YFP reporter | E. coli | PhoQ-PhoP variant library, together with: 10 µM Mg2+ | baseline: high Mg2+ state, higher = stronger signaling | fold induction | 2.42
